Published values of several laboratories.
A part holds a random share of what one study measured. “And” joins repeats or separate records; there may be more than shown.
Chain of UniProt Q9BX84 (whole entry, looked up): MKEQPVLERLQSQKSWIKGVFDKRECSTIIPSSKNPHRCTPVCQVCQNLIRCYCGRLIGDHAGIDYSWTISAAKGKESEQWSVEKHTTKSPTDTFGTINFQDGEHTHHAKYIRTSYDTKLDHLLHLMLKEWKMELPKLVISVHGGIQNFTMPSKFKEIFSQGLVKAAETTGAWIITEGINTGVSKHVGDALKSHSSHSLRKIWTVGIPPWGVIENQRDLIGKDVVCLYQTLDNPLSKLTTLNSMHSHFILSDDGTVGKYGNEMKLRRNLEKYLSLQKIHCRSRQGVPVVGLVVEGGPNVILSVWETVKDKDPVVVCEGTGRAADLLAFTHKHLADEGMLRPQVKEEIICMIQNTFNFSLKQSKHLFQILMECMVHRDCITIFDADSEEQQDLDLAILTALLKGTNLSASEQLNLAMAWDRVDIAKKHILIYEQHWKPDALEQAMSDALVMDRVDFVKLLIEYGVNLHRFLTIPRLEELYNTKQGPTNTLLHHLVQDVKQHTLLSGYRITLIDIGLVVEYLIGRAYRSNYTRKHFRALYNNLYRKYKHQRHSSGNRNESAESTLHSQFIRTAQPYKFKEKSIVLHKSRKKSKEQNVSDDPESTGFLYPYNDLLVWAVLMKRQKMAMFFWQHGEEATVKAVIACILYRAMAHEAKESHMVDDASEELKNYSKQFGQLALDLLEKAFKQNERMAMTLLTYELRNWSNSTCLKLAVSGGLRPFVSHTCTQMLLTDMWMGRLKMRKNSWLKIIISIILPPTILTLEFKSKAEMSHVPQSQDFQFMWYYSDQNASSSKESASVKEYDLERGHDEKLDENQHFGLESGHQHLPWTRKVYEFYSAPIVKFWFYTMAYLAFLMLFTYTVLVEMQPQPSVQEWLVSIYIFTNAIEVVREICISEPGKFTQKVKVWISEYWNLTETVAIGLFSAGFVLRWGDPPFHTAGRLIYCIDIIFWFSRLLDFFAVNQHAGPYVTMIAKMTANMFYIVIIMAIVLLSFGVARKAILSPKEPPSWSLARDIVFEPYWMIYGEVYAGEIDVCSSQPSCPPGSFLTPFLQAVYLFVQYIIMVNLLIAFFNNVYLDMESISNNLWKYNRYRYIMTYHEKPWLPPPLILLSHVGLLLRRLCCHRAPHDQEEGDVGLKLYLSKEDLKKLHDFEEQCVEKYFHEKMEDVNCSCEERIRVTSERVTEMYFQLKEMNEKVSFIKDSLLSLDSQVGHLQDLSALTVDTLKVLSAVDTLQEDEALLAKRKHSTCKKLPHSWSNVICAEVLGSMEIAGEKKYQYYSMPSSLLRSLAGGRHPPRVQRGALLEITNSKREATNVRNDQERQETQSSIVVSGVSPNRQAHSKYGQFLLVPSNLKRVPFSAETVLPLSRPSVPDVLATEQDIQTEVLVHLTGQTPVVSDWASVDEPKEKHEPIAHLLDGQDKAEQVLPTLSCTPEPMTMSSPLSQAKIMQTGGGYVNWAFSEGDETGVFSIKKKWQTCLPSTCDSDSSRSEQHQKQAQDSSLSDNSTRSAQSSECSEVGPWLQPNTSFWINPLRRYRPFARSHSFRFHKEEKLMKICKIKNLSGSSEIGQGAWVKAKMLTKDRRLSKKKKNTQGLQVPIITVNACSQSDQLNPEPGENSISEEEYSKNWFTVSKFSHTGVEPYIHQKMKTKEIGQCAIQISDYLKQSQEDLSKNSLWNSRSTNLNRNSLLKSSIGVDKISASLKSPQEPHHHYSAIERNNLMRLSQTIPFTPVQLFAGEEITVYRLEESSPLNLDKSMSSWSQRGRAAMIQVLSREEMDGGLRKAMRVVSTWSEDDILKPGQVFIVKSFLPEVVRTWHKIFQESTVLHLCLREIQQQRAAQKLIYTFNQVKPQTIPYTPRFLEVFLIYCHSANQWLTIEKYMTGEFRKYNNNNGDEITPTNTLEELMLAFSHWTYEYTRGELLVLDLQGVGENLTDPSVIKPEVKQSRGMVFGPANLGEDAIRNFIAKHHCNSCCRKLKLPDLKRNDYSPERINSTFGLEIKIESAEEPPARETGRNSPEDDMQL
Chain of UniProt P54753 (whole entry, looked up): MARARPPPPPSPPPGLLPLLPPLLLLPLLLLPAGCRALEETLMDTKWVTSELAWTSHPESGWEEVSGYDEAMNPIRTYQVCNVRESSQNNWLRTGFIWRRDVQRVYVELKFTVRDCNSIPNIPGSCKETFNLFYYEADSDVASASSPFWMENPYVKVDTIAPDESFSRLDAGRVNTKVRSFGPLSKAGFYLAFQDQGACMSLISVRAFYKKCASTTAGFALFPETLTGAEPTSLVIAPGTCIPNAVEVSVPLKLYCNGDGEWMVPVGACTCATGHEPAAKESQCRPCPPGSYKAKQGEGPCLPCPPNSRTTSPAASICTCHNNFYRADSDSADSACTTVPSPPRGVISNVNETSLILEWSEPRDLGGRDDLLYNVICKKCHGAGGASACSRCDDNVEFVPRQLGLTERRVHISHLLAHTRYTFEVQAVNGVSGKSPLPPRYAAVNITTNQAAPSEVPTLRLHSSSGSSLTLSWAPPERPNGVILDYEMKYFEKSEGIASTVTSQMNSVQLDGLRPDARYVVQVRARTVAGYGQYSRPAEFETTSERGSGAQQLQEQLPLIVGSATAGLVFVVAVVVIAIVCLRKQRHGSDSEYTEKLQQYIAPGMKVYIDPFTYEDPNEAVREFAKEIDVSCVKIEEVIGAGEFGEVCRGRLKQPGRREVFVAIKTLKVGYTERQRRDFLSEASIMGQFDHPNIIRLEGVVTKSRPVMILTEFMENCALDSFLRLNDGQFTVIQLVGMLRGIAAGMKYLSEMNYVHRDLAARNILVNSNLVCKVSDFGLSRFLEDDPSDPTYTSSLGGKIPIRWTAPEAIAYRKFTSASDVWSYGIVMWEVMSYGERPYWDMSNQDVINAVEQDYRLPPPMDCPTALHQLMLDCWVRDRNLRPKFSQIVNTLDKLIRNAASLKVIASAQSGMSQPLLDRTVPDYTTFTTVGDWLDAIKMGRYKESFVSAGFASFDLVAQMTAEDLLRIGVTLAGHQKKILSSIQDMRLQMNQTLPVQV
Chain of UniProt O15111 (whole entry, looked up): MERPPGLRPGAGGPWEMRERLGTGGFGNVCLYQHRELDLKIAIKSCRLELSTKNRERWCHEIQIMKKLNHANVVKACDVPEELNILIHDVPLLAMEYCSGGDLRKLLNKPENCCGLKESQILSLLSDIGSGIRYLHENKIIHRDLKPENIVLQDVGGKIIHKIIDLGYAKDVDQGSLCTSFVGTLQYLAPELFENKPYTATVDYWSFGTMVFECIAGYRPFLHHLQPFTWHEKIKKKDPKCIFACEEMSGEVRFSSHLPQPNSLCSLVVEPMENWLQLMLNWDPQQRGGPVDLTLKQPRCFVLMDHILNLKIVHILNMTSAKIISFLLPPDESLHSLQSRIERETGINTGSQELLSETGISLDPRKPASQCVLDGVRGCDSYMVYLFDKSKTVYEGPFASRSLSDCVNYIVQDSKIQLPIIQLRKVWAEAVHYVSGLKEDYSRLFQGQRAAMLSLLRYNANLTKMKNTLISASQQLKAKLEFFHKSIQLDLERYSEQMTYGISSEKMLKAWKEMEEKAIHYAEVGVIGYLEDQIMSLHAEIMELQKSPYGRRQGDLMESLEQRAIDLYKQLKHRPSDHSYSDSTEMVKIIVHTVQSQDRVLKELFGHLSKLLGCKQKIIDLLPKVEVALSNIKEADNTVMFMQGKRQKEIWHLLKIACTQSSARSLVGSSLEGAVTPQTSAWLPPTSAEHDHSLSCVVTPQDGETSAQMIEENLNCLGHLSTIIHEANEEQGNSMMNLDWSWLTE
Chain of UniProt P10721 (whole entry, unmodified, looked up): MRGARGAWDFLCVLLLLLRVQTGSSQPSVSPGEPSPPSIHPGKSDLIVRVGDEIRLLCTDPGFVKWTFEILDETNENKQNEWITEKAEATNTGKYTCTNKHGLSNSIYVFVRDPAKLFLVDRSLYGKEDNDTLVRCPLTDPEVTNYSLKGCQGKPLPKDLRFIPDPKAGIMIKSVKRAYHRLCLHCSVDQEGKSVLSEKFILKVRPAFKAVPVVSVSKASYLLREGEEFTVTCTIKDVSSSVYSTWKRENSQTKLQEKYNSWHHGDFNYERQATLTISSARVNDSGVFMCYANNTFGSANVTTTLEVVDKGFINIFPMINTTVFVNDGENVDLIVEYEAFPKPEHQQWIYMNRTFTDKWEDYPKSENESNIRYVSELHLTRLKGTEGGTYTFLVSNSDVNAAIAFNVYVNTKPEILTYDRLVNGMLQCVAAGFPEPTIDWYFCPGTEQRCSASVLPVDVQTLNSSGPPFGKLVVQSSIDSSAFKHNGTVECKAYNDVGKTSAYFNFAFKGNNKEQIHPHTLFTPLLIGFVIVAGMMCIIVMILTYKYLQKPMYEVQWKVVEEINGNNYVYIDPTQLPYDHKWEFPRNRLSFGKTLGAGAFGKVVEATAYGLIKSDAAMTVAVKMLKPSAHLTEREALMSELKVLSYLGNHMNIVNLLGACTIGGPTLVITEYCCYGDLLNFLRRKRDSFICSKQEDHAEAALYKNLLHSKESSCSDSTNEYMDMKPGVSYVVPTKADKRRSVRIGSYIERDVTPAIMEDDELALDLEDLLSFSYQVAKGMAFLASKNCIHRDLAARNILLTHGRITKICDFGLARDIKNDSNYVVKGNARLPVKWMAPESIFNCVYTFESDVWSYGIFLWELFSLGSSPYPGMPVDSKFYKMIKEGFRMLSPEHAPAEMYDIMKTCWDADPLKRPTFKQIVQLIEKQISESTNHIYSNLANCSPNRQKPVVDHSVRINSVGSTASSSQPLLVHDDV
Chain of UniProt Q96PN8 (whole entry, looked up): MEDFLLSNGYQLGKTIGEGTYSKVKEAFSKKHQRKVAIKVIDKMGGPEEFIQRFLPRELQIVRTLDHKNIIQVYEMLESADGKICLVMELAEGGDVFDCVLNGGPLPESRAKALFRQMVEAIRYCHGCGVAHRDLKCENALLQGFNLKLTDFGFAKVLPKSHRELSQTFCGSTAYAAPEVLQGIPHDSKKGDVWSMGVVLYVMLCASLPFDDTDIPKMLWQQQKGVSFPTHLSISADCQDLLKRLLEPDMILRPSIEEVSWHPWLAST

Set 1 — effect on: cell-free assay; technique: competition with immobilised ligand; concentration: 0.1 µM
SMILES: CCOC(=O)c1cc2cc(-c3cc(C(=O)NCc4ccc(C(=O)O)cc4)nn3C)ccc2[nH]1
It gave 94% for remaining binding (LCK (Homo sapiens, UniProt P06239)).
The remaining binding was 100% (TNIK (Homo sapiens, UniProt Q9UKE5)).
WNK3 (Homo sapiens, UniProt Q9BYP7) — remaining binding: 96%.
For Ribosomal protein S6 kinase alpha-4, N-terminal kinase domain (RPS6KA4, Homo sapiens, UniProt O75676): remaining binding read 88%.
For TRPM6 (Homo sapiens, UniProt Q9BX84): remaining binding read 95%.
For TSSK3 (Homo sapiens, UniProt Q96PN8): remaining binding read 91%.
FLT3 (Homo sapiens, UniProt P36888, D835H) — remaining binding: 100%.
For EPHB3 (Homo sapiens, UniProt P54753): remaining binding read 90%.
FLT3 (Homo sapiens, UniProt P36888, R834Q) — remaining binding: 78%.
The remaining binding was 100% (MTOR (Homo sapiens, UniProt P42345)).
The remaining binding was 87% (HIPK4 (Homo sapiens, UniProt Q8NE63)).
For EGFR (Homo sapiens, UniProt P00533, del747-750/T751S): remaining binding read 100%.
It gave 90% for remaining binding (MAP2K1 (Homo sapiens, UniProt Q02750)).
For SIK3 (Homo sapiens, UniProt Q9Y2K2): remaining binding read 100%.
The remaining binding was 100% (CHUK (Homo sapiens, UniProt O15111)).
For KIT (Homo sapiens, UniProt P10721, V559D): remaining binding read 100%.
The remaining binding was 99% (RET (Homo sapiens, UniProt P07949, V804L)).
It gave 100% for remaining binding (EPHB1 (Homo sapiens, UniProt P54762)).
It gave 83% for remaining binding (LRRK2 (Homo sapiens, UniProt Q5S007, G2019S)).
The remaining binding was 81% (Tyrosine-protein kinase ABL1, non-phosphorylated (ABL1, Homo sapiens, UniProt P00519)).
The remaining binding was 91% (ACVR2B (Homo sapiens, UniProt Q13705)).
For RIPK4 (Homo sapiens, UniProt P57078): remaining binding read 82%.
It gave 100% for remaining binding (PAK2 (Homo sapiens, UniProt Q13177)).
MAP3K1 (Homo sapiens, UniProt Q13233) — remaining binding: 90%.
The remaining binding was 100% (RIPK2 (Homo sapiens, UniProt O43353)).

Set 2 — cell line: mouse MPNST tumor cells; technique: high-content nuclear imaging; refers to: cell number; concentration: 10 µM; time: 12 h; setting: mean of 2 replicates; baseline: plate mean; reading: higher = more cells
Cc1onc(-c2ccccc2)c1-c1ccc(S(N)(=O)=O)cc1 has a nuclei count of 2.03 z-score and 1.2 z-score.
CCN(CC)CCN(Cc1ccc(-c2ccc(C(F)(F)F)cc2)cc1)C(=O)Cn1c(SCc2ccc(F)cc2)nc(=O)c2c1CCC2 gave a nuclei count of -5.41 z-score.
With COc1ccccc1N1CCN(CCCNc2cc(=O)n(C)c(=O)n2C)CC1 the nuclei count was 1.24 z-score.
With COC(=O)C1=C(C)NC(C)=C(C(=O)OC(C)C)C1c1cccc2nonc12 (stereo not shown) the nuclei count was 0.776 z-score and 5.17 z-score.
The nuclei count of CC#CCOC(=O)c1c(C)nc2sc3c(c2c1N)CCC(O)C3 (stereo not shown) is reported as 2.11 z-score.
With COc1ccc(C2=N[C@@H](c3ccc(Cl)cc3)[C@@H](c3ccc(Cl)cc3)N2C(=O)N2CCNC(=O)C2)c(OC(C)C)c1 the nuclei count was -3.11 z-score and 1.49 z-score.
For Clc1ccc(C(Cn2ccnc2)OCc2c(Cl)cccc2Cl)c(Cl)c1 (stereo not shown), the nuclei count was 2.53 z-score.
The nuclei count of CC(C)NC(=N)NC(=N)Nc1ccc(Cl)cc1 is reported as 1.81 z-score and 0.89 z-score.
The nuclei count of O=C(Oc1cccc2cccnc12)c1ccccc1 is reported as -0.843 z-score.
Nc1ncnc2c1c(-c1cccc(OCc3ccccc3)c1)cn2C1CC(CN2CCCC2)C1 (stereo not shown) gave a nuclei count of 0.762 z-score.
The nuclei count of CC(=O)OCC(=O)[C@@]1(O)[C@H](C)C[C@H]2[C@@H]3CCC4=CC(=O)C=C[C@]4(C)[C@@]3(F)[C@@H](O)C[C@@]21C is reported as 2.65 z-score.
CC(=O)NCCc1c(Cc2ccccc2)[nH]c2ccccc12 gave a nuclei count of 0.82 z-score.
The nuclei count of CN1C2CCCC1CC(NC(=O)c1nn(C)c3ccccc13)C2 (stereo not shown) is reported as -0.355 z-score.
CN(C)CCN(Cc1cccs1)c1ccccn1 has a nuclei count of 2.66 z-score.

Set 3 — effect on: enzyme activity; action: inhibitor; concentration: 0.5 µM; baseline: control
Target: Serine/threonine-protein kinase 4 (STK4, Homo sapiens, UniProt Q13043)
Construct (Q13043 1-487): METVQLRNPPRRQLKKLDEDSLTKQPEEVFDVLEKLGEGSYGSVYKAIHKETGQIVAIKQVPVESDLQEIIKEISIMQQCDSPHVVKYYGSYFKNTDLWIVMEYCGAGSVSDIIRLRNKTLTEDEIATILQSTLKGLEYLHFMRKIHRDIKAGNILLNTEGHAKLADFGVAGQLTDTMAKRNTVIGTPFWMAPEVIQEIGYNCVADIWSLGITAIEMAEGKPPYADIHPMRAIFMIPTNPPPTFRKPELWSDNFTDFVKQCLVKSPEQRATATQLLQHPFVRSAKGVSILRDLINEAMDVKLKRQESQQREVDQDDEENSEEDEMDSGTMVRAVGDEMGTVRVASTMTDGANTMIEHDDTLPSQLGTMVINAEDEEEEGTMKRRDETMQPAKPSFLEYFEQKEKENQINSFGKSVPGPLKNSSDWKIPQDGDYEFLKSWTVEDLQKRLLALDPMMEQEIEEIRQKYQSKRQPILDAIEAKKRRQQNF
The remaining activity of Oc1cccc(-c2nc(N3CCOCC3)c3oc4ncccc4c3n2)c1 is reported as 93.3%.
Cc1ccc(S(=O)(=O)/C=C/C#N)cc1 gave a remaining activity of 94.7%.
With c1ccc2c(-c3ccncc3)c[nH]c2c1 the remaining activity was 103%.
O=C1Nc2ccccc2/C1=C\c1c(Cl)[nH]c2ccccc12 has a remaining activity of 91%.
O=C1NC(=O)c2c1c1c3ccccc3[nH]c1n1cncc21 gave a remaining activity of 42.7%.
For O=C1Cc2c([nH]c3ccc(Br)cc23)-c2ccccc2N1, the remaining activity was 81.8%.
The remaining activity of O=Nc1c(-c2c(O)[nH]c3cc(Br)ccc23)[nH]c2ccccc12 is reported as 22.5%.
COc1ccc(COc2ccc(Cc3cnc(N)nc3N)cc2OC)cc1 has a remaining activity of 106%.

Set 4
Compound: CC(C)C[C@@H]1NC(=O)[C@@H](N(C)C(=O)[C@H](CC2CCC2)NC(=O)[C@@H]2C[C@@H](F)CN2C(=O)C2(C(F)(F)F)CC(F)(F)C2)CCCCNC(=O)C2(CC2)NC(=O)[C@H](Cc2cc(Cl)ccc2Cl)N(C)C1=O
Jurkat, doxycycline-inducible E2F1; 20 nM, 6 days, doxycycline added; baseline: DMSO — cell count: 0.464 and 0.682 and 0.55.
For Jurkat, doxycycline-inducible E2F1; 60 nM, 6 days, doxycycline added; baseline: DMSO: cell count read 0.53 and 0.353 and 0.435.
It gave 0.246 and 0.258 for cell count (NCI-H446; Vi-Cell counting; 60 nM, 3 days, without Mps1 inhibitor; baseline: DMSO).
For NCI-H446; Vi-Cell counting; 200 nM, 3 days, together with: Mps1 inhibitor 3 nM; baseline: DMSO: cell count read 0.5 and 0.473.
MDA-MB-231 DOX-inducible E2F1; 20 nM, 6 days, together with: doxycycline; baseline: DMSO — cell count: 0.684 and 0.961 and 0.956.
It gave 0.141 and 0.147 and 0.101 for cell count (NCI-H446 sgCtrl; dose-response; 6 nM, 6 d; baseline: DMSO-treated).
The cell count was 0.18 and 0.27 and 0.23 (NCI-H82; Vi-Cell counting; 20 µM, 6 days; baseline: DMSO).
NCI-H1299; Vi-Cell counting; 200 nM, 6 days; baseline: DMSO — cell count: 0.717 and 0.778 and 0.605.
